Measurements pooled from the literature.
Lines come from different studies, so protocols differ. Several values in a cell are separate wells, animals, samples, runs or records.
Organism: Pseudomonas aeruginosa

Compound = O=C(Cc1ccc(Br)cc1)N[C@H]1CCOC1=O; test = elastin-Congo red; system = PAO1 wild type; conditions = 100 µM, 20 h; scale = reference: DMSO; endpoint = elastase production; value = 82.3%
Compound = CC(CCCOC(=O)CCC[N+](C)(C)C)C1CCC2C3CCC4CC(OC(=O)CCC[N+](C)(C)C)CCC4(C)C3CCC12C (centres unmarked); test = microbial growth, disc diffusion; system = ATCC27853; conditions = 125 µg/disc, 24 h; endpoint = inhibition zone; value = 9 mm
Compound = CCCCCCCCCCCCn1nnc(CC(=O)O)n1; test = elastin-Congo red; system = PAO1 wild type; conditions = 100 µM, 20 h; scale = reference: DMSO; endpoint = elastase production; value = 70.9%
Compound = COc1c(C)c(OCc2ccccc2)c(C)c(OCc2ccccc2)c1C(=O)/C=C/c1ccccc1; test = microbial killing, broth dilution; system = ATCC27853; endpoint = MBC; value = > 5000 µg/mL
Compound = CC(C)C1=CC2=CCC3C(C)(C(=O)OCCC[N+](C)(C)C)CCCC3(C)C2CC1 (centres unmarked); test = microbial growth, disc diffusion; system = ATCC27853; conditions = 250 µg/disc, 24 h; endpoint = inhibition zone; value = 11 mm
Compound = CCCC(=O)C#Cc1ccc(F)c(F)c1; test = RT-qPCR, measured: rhlA; system = biofilm cells; conditions = 10 µM, 24 h; scale = reference: untreated; endpoint = mRNA level; value = 24%
Compound = COc1c(C)c(O)c(C(=O)C=Cc2ccccc2)c(OC)c1C; test = microbial killing, broth dilution; system = ATCC27853; endpoint = MBC; value = > 5000 µg/mL
Compound = CC[C@H](C)CCCCC(=O)N[C@@H](CCN)C(=O)N[C@H](C(=O)N[C@@H](CCN)C(=O)N[C@H]1CCNC(=O)[C@H]([C@@H](C)O)NC(=O)[C@H](CCN)NC(=O)[C@H](CCN)NC(=O)[C@H](CC(C)C)NC(=O)[C@@H](CC(C)C)NC(=O)[C@H](CCN)NC1=O)[C@@H](C)O; system = BAA-2797, BALB/c mouse peritonitis, kidney; conditions = dose not given; endpoint = bacterial load; value = 2.81 log CFU and 2.56 log CFU and 2.38 log CFU and 2.68 log CFU and 2.51 log CFU

Some of these lines once more:
Compound = CC(C)C1=CC2=CCC3C(C)(C(=O)OCCC[N+](C)(C)C)CCCC3(C)C2CC1 (centres unmarked); test = microbial growth, disc diffusion; system = ATCC27853; conditions = 250 µg/disc, 24 h; endpoint = inhibition zone; value = 11 mm
